Experimental data collected from several papers.
± marks the error that the study gave.
UCHL1: Ubiquitin carboxyl-terminal hydrolase isozyme L1 (UCHL1, Homo sapiens, UniProt P09936)
Chain of UniProt P09936 (whole entry, looked up): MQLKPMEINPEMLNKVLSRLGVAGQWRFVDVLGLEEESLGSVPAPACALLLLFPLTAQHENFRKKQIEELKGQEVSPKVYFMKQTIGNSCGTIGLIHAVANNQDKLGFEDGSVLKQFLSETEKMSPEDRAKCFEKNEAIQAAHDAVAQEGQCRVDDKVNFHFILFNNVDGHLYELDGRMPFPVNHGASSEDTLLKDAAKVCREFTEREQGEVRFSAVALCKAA

CC[C@H](C)[C@H](NC(=O)CN)C(=O)N[C@@H](CC(C)C)C(=O)N[C@@H](CC(=O)O)C(=O)N[C@@H](C)C(=O)N[C@H](C(=O)N[C@@H](CCCCN)C(=O)N[C@@H](C)C(=O)N[C@H](C(=O)N[C@@H](C)C(=O)N[C@@H](CCCCN)C(=O)N[C@@H](C)C(=O)N[C@@H](C)C(=O)NCC(N)=O)[C@@H](C)CC)[C@@H](C)CC
mean residue ellipticity (circular dichroism at 222 nm; 10 mM SDS; 100 µM, pH 4.0): -4760 deg cm2/dmol

N#CC(=Cc1cccc(Cl)c1Cl)C(=O)NCc1ccco1
labelling (UCHL1; covalent, intact protein LC-MS; 12.5 µM): 37.9%

COc1cc(/C=C/C(=O)CC(=O)/C=C/c2ccc(O)c(OC)c2)ccc1O
mean erythrocyte fragility (osmotic fragility; human erythrocytes; 20 µM): 0.67%

O=C(CCCN1CCC(O)(c2ccc(Cl)cc2)CC1)c1ccc(F)cc1
mean blood pressure (male Hartley guinea pigs, anaesthetized; intravenous, 0.01 mg/kg group, baseline before infusion): 37 ± 0.1 mmHg

CC[C@H](C)[C@@H]1NC(=O)[C@H](CCCNC(=N)N)NC(=O)[C@H](CC(=O)O)NC(=O)[C@H](CC(C)C)NC(=O)[C@H](CCCCN)NC(=O)[C@H](CC(C)C)NC(=O)CNC(=O)[C@H](Cc2ccccc2)NC(=O)[C@@H](NC(=O)CNC(=O)[C@H](CCCCN)NC(=O)[C@H](CO)NC(=O)[C@H](CC(C)C)NC(=O)CNC(=O)[C@H](CCCCN)NC(=O)[C@H](CCCCN)NC(=O)[C@H](CC(N)=O)NC(=O)[C@H](C)NC(=O)CNC(=O)[C@H](CCCCN)NC(=O)[C@H](Cc2ccc(O)cc2)NC(=O)[C@H](CCCCN)NC(=O)[C@H](CCCNC(=N)N)NC(=O)[C@H](C)NC(=O)[C@H](CC(N)=O)NC(=O)[C@@H]2CCCN2C(=O)[C@H](Cc2c[nH]cn2)NC(=O)[C@H](CCC(=O)O)NC(=O)[C@H](CCC(N)=O)NC(=O)CNC(=O)[C@@H]2CCCN2)CSSC[C@@H](C(=O)O)NC(=O)CNC(=O)[C@H](CC(C)C)NC(=O)CNC(=O)[C@H](CO)NC(=O)[C@H](CCSC)NC(=O)[C@H](CO)NC(=O)CNC1=O
mean Cmax (human, plasma; concentration not given, first 6 months): 189 ng/mL

CC(C)NCC(O)COc1cccc2ccccc12 (stereo not drawn)
mean blood pressure (male Hartley guinea pigs, anaesthetized; intravenous, 0.3 mg/kg group, baseline before infusion): 41 ± 0.2 mmHg

CC[C@H](C)[C@H](NC(=O)CN)C(=O)N[C@@H](CC(C)C)C(=O)N[C@@H](CC(=O)O)C(=O)N[C@@H](C)C(=O)N[C@H](C(=O)N[C@@H](CCCCN)C(=O)N[C@@H](C)C(=O)N[C@H](C(=O)N[C@@H](C)C(N)=O)[C@@H](C)CC)[C@@H](C)CC
mean residue ellipticity (circular dichroism at 222 nm; 10 mM SDS; 100 µM, pH 4.0): -1880 deg cm2/dmol

CC(C)[C@@H]1CC[C@@H](C)C[C@@H]1O
mean erythrocyte fragility (osmotic fragility; human erythrocytes; 100 µM): 0.67%

Cc1c(C(=O)O)ccc2c3n(nc12)[C@@H]1[C@H](C3)N(CC2CC2)[C@@]2(C(=O)Nc3cc(Cl)ccc32)[C@H]1c1cccc(Cl)c1F
mean residence time (Göttingen minipig, female, plasma; intravenous): 4.8 h

COc1cc(C=C(C#N)C(=O)NC(C)C)sn1
labelling (UCHL1; covalent, intact protein LC-MS; 12.5 µM): 9.76%

CC[C@H](C)[C@H](NC(=O)CN)C(=O)N[C@@H](C)C(=O)N[C@@H](CCCCN)C(=O)N[C@@H](Cc1ccccc1)C(=O)N[C@H](C(=O)N[C@@H](CCCCN)C(=O)N[C@@H](CCCCN)C(=O)N[C@H](C(=O)N[C@@H](C)C(=O)N[C@@H](CCCCN)C(=O)N[C@@H](C)C(=O)N[C@@H](CC(C)C)C(=O)N[C@@H](CCCNC(=N)N)C(N)=O)[C@@H](C)CC)[C@@H](C)CC
mean residue ellipticity (circular dichroism at 222 nm; 30% TFE; 100 µM): -6710 deg cm2/dmol

CCCCc1oc2ccccc2c1C(=O)c1cc(I)c(OCCN(CC)CC)c(I)c1
mean blood pressure (male Hartley guinea pigs, anaesthetized; intravenous, 5 mg/kg group, baseline before infusion): 40 ± 0.1 mmHg

Cc1ccc(C(=O)Nc2ccnc(S(N)(=O)=O)c2)c(N2CCCC(F)(F)CC2)n1
mean unbound plasma concentration (rhesus macaque, plasma; oral, 10 mg/kg, noxious stimulus test): 470 nM

CC[C@H](C)[C@H](NC(=O)CN)C(=O)N[C@@H](CC(C)C)C(=O)N[C@@H](CC(=O)O)C(=O)N[C@@H](C)C(=O)N[C@H](C(=O)N[C@@H](CC(C)C)C(=O)N[C@@H](CC(=O)O)C(=O)N[C@@H](C)C(=O)N[C@H](C(=O)N[C@@H](CCCCN)C(=O)N[C@@H](C)C(=O)N[C@H](C(=O)N[C@@H](C)C(=O)N[C@@H](CCCCN)C(=O)N[C@@H](C)C(=O)N[C@H](C(=O)N[C@@H](CCCCN)C(=O)N[C@@H](C)C(=O)N[C@@H](CCCCN)C(=O)N[C@@H](C)C(=O)NCC(N)=O)[C@@H](C)CC)[C@@H](C)CC)[C@@H](C)CC)[C@@H](C)CC
mean residue ellipticity (circular dichroism at 222 nm; 10 mM SDS; 100 µM, pH 4.0): -18600 deg cm2/dmol

COc1ccccc1OCCNCC(O)COc1cccc2[nH]c3ccccc3c12 (stereo not drawn)
mean precipitate particle size (optical microscopy; 2 mg/mL Kollidon VA64; 60 min, supersaturation ratio 10): 5.35 ± 0.45 µm

CC(C)NCC(O)c1ccc(NS(C)(=O)=O)cc1 (racemic)
mean blood pressure (male Hartley guinea pigs, anaesthetized; intravenous, 10 mg/kg over 10 min, after infusion): 25 ± 0.4 mmHg

CC[C@H](C)[C@H](NC(=O)[C@H](C)N)C(=O)N[C@@H](CCCCN)C(=O)N[C@@H](C)C(=O)N[C@H](C(=O)N[C@@H](C)C(=O)N[C@@H](CCCCN)C(=O)N[C@@H](C)C(=O)N[C@@H](C)C(=O)NCC(N)=O)[C@@H](C)CC
mean residue ellipticity (circular dichroism at 222 nm; 10 mM SDS; 100 µM, pH 4.0): -2180 deg cm2/dmol

CC1(C)CCC(CN2CCN(c3ccc(C(=O)NS(=O)(=O)c4ccc(NCC5CCOCC5)c([N+](=O)[O-])c4)c(Oc4cnc5[nH]ccc5c4)c3)CC2)=C(c2ccc(Cl)cc2)C1
mean decrease in absolute neutrophil count (chronic lymphocytic leukaemia patients; dose not given, to lowest level; baseline: baseline at treatment start): 69%

Excerpt of the above:
CC[C@H](C)[C@H](NC(=O)CN)C(=O)N[C@@H](CC(C)C)C(=O)N[C@@H](CC(=O)O)C(=O)N[C@@H](C)C(=O)N[C@H](C(=O)N[C@@H](CC(C)C)C(=O)N[C@@H](CC(=O)O)C(=O)N[C@@H](C)C(=O)N[C@H](C(=O)N[C@@H](CCCCN)C(=O)N[C@@H](C)C(=O)N[C@H](C(=O)N[C@@H](C)C(=O)N[C@@H](CCCCN)C(=O)N[C@@H](C)C(=O)N[C@H](C(=O)N[C@@H](CCCCN)C(=O)N[C@@H](C)C(=O)N[C@@H](CCCCN)C(=O)N[C@@H](C)C(=O)NCC(N)=O)[C@@H](C)CC)[C@@H](C)CC)[C@@H](C)CC)[C@@H](C)CC
mean residue ellipticity (circular dichroism at 222 nm; 10 mM SDS; 100 µM, pH 4.0): -18600 deg cm2/dmol

COc1ccccc1OCCNCC(O)COc1cccc2[nH]c3ccccc3c12 (stereo not drawn)
mean precipitate particle size (optical microscopy; 2 mg/mL Kollidon VA64; 60 min, supersaturation ratio 10): 5.35 ± 0.45 µm
